{"data": "Results pooled from the literature", "rep main protease": "Replicase polyprotein 1ab, main protease (rep, Severe acute respiratory syndrome coronavirus 2, UniProt P0DTD1)", "note": "Each line is one published result; not all experiments were run side by side. Values joined by “and” are separate records of one study, mostly repeats; a detail may differ. Numbers after ± are the reported error."}
{"Structure (SMILES)": "CCN(CC)Cc1ccc(Nc2ccnc3cc(Cl)ccc23)cc1O", "target or system": "SARS-CoV-2", "test": "viral replication", "test system": "Vero E6, USA-WA1/2020", "conditions": "2.5 µM", "quantity": "inhibition", "result": "44.4%"}
{"Structure (SMILES)": "O=C(CSc1nc2ccccc2c(=O)[nH]1)NNC(=O)c1ccccc1Br", "target or system": "SARS-CoV-2", "test": "viral replication, plaque reduction", "conditions": "62.5 µM", "quantity": "inhibition", "result": "45.1 ± 1.71%"}
{"Structure (SMILES)": "CC(C)(C)[C@H](NC(=O)C(F)(F)F)C(=O)N1C[C@H]2[C@@H]([C@H]1C(=O)N[C@H](C#N)C[C@@H]1CCNC1=O)C2(C)C", "target or system": "SARS-CoV-2", "test": "viral replication, item: nucleocapsid", "test system": "NHBE, Omicron BA.5", "conditions": "1 µM, 3 h pretreatment", "quantity": "inhibition", "result": "78.5%"}
{"Structure (SMILES)": "CC(C)[C@@H]1CC(O)O[C@@H]([C@@H](C)[C@H]2CC(=O)[C@@H]3[C@@H]4[C@@H](O)[C@H](O)[C@H]5[C@@H](O)[C@H](O)CC[C@]5(C)[C@H]4CC[C@]23C)C1 (some centres unmarked)", "target or system": "SARS-CoV-2", "test": "viral replication, mNeonGreen reporter virus", "conditions": "50 µM", "quantity": "inhibition", "result": "30.8%"}
{"Structure (SMILES)": "Cc1nn(-c2ccc(Cl)cc2)c2c1C(c1ccc(F)cc1F)C(C#N)=C(N)O2 (centres unmarked)", "target or system": "SARS-CoV-2", "test": "viral replication", "test system": "Vero", "conditions": "10 µM", "quantity": "inhibition", "result": "48.5%"}
{"Structure (SMILES)": "CC[C@H](C)[C@H](NC(=O)[C@H](CC(C)C)NC(=O)[C@H](Cc1c[nH]c2ccccc12)NC(=O)[C@H](CCC(N)=O)NC(=O)[C@@H](NC(=O)[C@H](Cc1ccccc1)NC(=O)[C@H](C)NC(=O)[C@H](CCCCNC(=O)COCCOCCNC(=O)COCCOCCNC(=O)CC[C@H](NC(=O)CCCCCCCCCCCCCCCCCCC(=O)O)C(=O)O)NC(=O)[C@H](CCC(N)=O)NC(=O)[C@H](C)NC(=O)[C@@H](NC(=O)[C@H](CCCCN)NC(=O)[C@H](CC(=O)O)NC(=O)[C@H](CC(C)C)NC(=O)C(C)(C)NC(=O)[C@@H](NC(=O)[C@H](CO)NC(=O)[C@H](Cc1ccc(O)cc1)NC(=O)[C@H](CC(=O)O)NC(=O)[C@H](CO)NC(=O)[C@@H](NC(=O)[C@H](Cc1ccccc1)NC(=O)[C@@H](NC(=O)CNC(=O)[C@H](CCC(=O)O)NC(=O)C(C)(C)NC(=O)[C@@H](N)Cc1ccc(O)cc1)[C@@H](C)O)[C@@H](C)O)[C@@H](C)CC)[C@@H](C)CC)C(C)C)C(=O)N[C@@H](C)C(=O)NCC(=O)NCC(=O)N1CCC[C@H]1C(=O)N[C@@H](CO)C(=O)N[C@@H](CO)C(=O)NCC(=O)N[C@@H](C)C(=O)N1CCC[C@H]1C(=O)N1CCC[C@H]1C(=O)N1CCC[C@H]1C(=O)N[C@@H](CO)C(N)=O", "test system": "healthy subjects, serum", "conditions": "0.5 mg, day 29, multiple ascending dose", "quantity": "serum ALT", "result": "17 ± 5.1 U/L"}
{"Structure (SMILES)": "COC(=O)C[C@H](NC(=O)OC(C)(C)C)C(=O)CF", "target or system": "rep main protease", "test": "reporter gene (Gaussia luciferase), inhibitor", "conditions": "20 µM", "quantity": "inhibition", "result": "0.66%"}
{"Structure (SMILES)": "O=C(O[C@@H]1Cc2c(O)cc(O)cc2O[C@@H]1c1cc(O)c(O)c(O)c1)c1cc(O)c(O)c(O)c1", "target or system": "SARS-CoV-2", "test": "cytopathic effect", "test system": "Vero E6", "conditions": "50 µM, first run", "quantity": "inhibition", "result": "90%"}
{"Structure (SMILES)": "CC(C)(O)c1ccc2c(c1)ncn2-c1cccc(-c2ccccc2C#N)c1", "target or system": "SARS-CoV-2", "test": "viral replication", "test system": "Vero E6, USA-WA1/2020", "conditions": "2.5 µM", "quantity": "inhibition", "result": "47.9%"}
{"Structure (SMILES)": "O.c1cnc2c(c1)ccc1cccnc12", "target or system": "rep main protease", "test": "reporter gene (mKate2), inhibitor", "conditions": "20 µM", "quantity": "inhibition", "result": "-0.976%"}
{"Structure (SMILES)": "Cc1nn(-c2ccc(Cl)cc2)c2c1C(c1ccc(Cl)cc1)C(C#N)=C(N)O2 (centres unmarked)", "target or system": "SARS-CoV-2", "test": "viral replication", "test system": "Vero", "conditions": "10 µM", "quantity": "inhibition", "result": "69.2%"}
{"Structure (SMILES)": "C=CC(C)(C)c1cc(/C=C/C(=O)c2ccc(O)cc2)c(OC)cc1O", "target or system": "SARS-CoV-2", "test": "viral replication", "test system": "Vero E6, USA-WA1/2020", "conditions": "2.5 µM", "quantity": "inhibition", "result": "52.3%"}
{"Structure (SMILES)": "CNC(=O)[C@]1(O)C(=O)c2c([nH]c3ccc(Cl)cc23)-c2c(OC)c3ccccc3n21", "target or system": "SARS-CoV-2", "test": "viral replication, mNeonGreen reporter virus", "conditions": "50 µM", "quantity": "inhibition", "result": "14.1%"}
{"Structure (SMILES)": "O=C(/C=C/c1ccc(O)c(O)c1/C=C/c1ccc(O)c(O)c1)O[C@H](Cc1ccc(O)c(O)c1)C(=O)O", "target or system": "SARS-CoV-2", "test": "cytopathic effect", "test system": "Vero E6", "conditions": "100 µM, replicate run", "quantity": "inhibition", "result": "75%"}
{"Structure (SMILES)": "O=C(CSc1nc2c(c(=O)[nH]1)CCCC2)NNC(=O)c1ccc(Cl)cc1", "target or system": "SARS-CoV-2", "test": "viral replication, plaque reduction", "conditions": "62.5 µM", "quantity": "inhibition", "result": "40 ± 3.3%"}
{"Structure (SMILES)": "Cc1nn(-c2ccc(Cl)cc2)c2c1C(c1ccc(Cl)c(Cl)c1)C(C#N)=C(N)O2 (centres unmarked)", "target or system": "SARS-CoV-2", "test": "viral replication", "test system": "Vero", "conditions": "10 µM", "quantity": "inhibition", "result": "27.8%"}
{"Structure (SMILES)": "CC(C)(C(=O)c1cccnc1)c1cccnc1", "target or system": "SARS-CoV-2", "test": "viral replication", "test system": "Vero E6, USA-WA1/2020", "conditions": "2.5 µM", "quantity": "inhibition", "result": "46.4%"}
{"Structure (SMILES)": "CCN(CCO)CCCC(C)Nc1ccnc2cc(Cl)ccc12 (centres unmarked)", "target or system": "SARS-CoV-2", "conditions": "3.75 µM", "quantity": "inhibition", "result": "31.8%"}
{"Structure (SMILES)": "Cn1cnc(Cn2c(=O)[nH]/c(=N\\c3cc4cn(C)nc4cc3Cl)n(Cc3cc(F)c(F)cc3F)c2=O)n1", "test system": "human, severe renal impairment, plasma", "conditions": "oral, 375 mg single dose", "quantity": "Cmax", "result": "17200 ng/mL"}
{"Structure (SMILES)": "c1ccc2sc(C3(N4CCCCC4)CCCCC3)cc2c1", "target or system": "SARS-CoV-2", "test": "viral replication", "test system": "Vero E6, USA-WA1/2020", "conditions": "2.5 µM", "quantity": "inhibition", "result": "52.7%"}
{"Structure (SMILES)": "Cn1cnc(Cn2c(=O)[nH]/c(=N\\c3cc4cn(C)nc4cc3Cl)n(Cc3cc(F)c(F)cc3F)c2=O)n1", "target or system": "SARS-CoV-2", "test": "viral replication", "test system": "Vero C1008, wild type", "conditions": "0.1543 µM", "quantity": "inhibition", "result": "45%"}
{"Structure (SMILES)": "CC(C)(C)[C@H](NC(=O)C(F)(F)F)C(=O)N1CC2(CC2)C[C@H]1C(=O)N[C@H](C#N)C[C@@H]1CCNC1=O", "target or system": "SARS-CoV-2", "test": "viral replication, qRT-PCR viral RNA", "test system": "Vero E6", "conditions": "1 µM", "quantity": "inhibition", "result": "35%"}
{"Structure (SMILES)": "CCOC(=O)[C@H]1O[C@@H]1C(=O)N[C@@H](CC(C)C)C(=O)NCCC(C)C", "target or system": "SARS-CoV-2", "conditions": "0.06 µM", "quantity": "inhibition", "result": "-1.62%"}
{"Structure (SMILES)": "C[C@@H](O)[C@]1(O)[C@H]2Nc3c(cc(O)c4c3C(=O)c3ccccc3C4=O)[C@]1(O)[C@H](O)c1cccc(O)c12", "target or system": "SARS-CoV-2", "test": "viral replication, mNeonGreen reporter virus", "conditions": "50 µM", "quantity": "inhibition", "result": "33%"}
{"Structure (SMILES)": "CCN(CC)CCO[C@H]1CC[C@@]2(C)C(=CC[C@@H]3[C@@H]2CC[C@]2(C)OCC[C@@H]32)C1", "target or system": "SARS-CoV-2", "test": "viral replication", "test system": "Vero E6, USA-WA1/2020", "conditions": "2.5 µM", "quantity": "inhibition", "result": "40.6%"}
{"Structure (SMILES)": "O=C(CSc1nc2c(c(=O)[nH]1)CCCC2)NNC(=O)c1ccc([N+](=O)[O-])cc1", "target or system": "SARS-CoV-2", "test": "viral adsorption, plaque reduction", "conditions": "31.25 µM", "quantity": "inhibition", "result": "20 ± 3.3%"}
{"Structure (SMILES)": "CC(=O)N1CCN(CCOc2ccc(C3CCN(C4=Nn5c(nnc5C(F)(F)F)CC4)CC3)cc2)CC1", "target or system": "SARS-CoV-2", "test": "viral replication", "test system": "Vero E6, USA-WA1/2020", "conditions": "2.5 µM", "quantity": "inhibition", "result": "49.8%"}
{"Structure (SMILES)": "Nc1ncnc2c([C@@H]3N[C@H](CO)[C@@H](O)[C@H]3O)c[nH]c12", "target or system": "Marburg virus", "test": "viral replication, antibody staining", "test system": "HeLa, Musoke", "conditions": "0.4 µM, 12 h", "quantity": "infected cells", "result": "10.5%"}
{"Structure (SMILES)": "CC(C)=CCc1c(O)ccc(C(=O)/C=C/c2ccc(O)cc2)c1O", "target or system": "SARS-CoV-2", "test": "viral cytopathic effect", "test system": "Vero E6", "conditions": "6.25 µM", "quantity": "inhibition", "result": "0%"}
{"Structure (SMILES)": "CC(C)(C)[C@H](NC(=O)C(F)(F)F)C(=O)N1C[C@H]2[C@@H]([C@H]1C(=O)N[C@H](C#N)C[C@@H]1CCNC1=O)C2(C)C", "target or system": "SARS-CoV-2", "test": "viral replication", "test system": "Vero E6", "conditions": "0.0195 µM", "quantity": "inhibition", "result": "9.08% and 0% and 0.39%"}
{"Structure (SMILES)": "OC[C@H]1O[C@H]([S-])[C@H](O)[C@@H](O)[C@@H]1O.[Au+]", "target or system": "SARS-CoV-2", "test": "viral replication", "test system": "USA-WA1/2020", "conditions": "2.5 µM", "quantity": "inhibition", "result": "44.2%"}
{"Structure (SMILES)": "COc1ccc(C[C@@H]2c3cc(Oc4cc(C[C@@H]5c6cc(O)c(OC)cc6CCN5C)ccc4O)c(OC)cc3CCN2C)cc1", "target or system": "SARS-CoV-2", "test": "cytopathic effect", "test system": "Vero C1008 (E6)", "conditions": "50 µM", "quantity": "inhibition", "result": "25%"}
{"note": "Some of these lines once more:"}
{"Structure (SMILES)": "Cc1nn(-c2ccc(Cl)cc2)c2c1C(c1ccc(Cl)cc1)C(C#N)=C(N)O2 (centres unmarked)", "target or system": "SARS-CoV-2", "test": "viral replication", "test system": "Vero", "conditions": "10 µM", "quantity": "inhibition", "result": "69.2%"}
{"Structure (SMILES)": "CNC(=O)[C@]1(O)C(=O)c2c([nH]c3ccc(Cl)cc23)-c2c(OC)c3ccccc3n21", "target or system": "SARS-CoV-2", "test": "viral replication, mNeonGreen reporter virus", "conditions": "50 µM", "quantity": "inhibition", "result": "14.1%"}
{"Structure (SMILES)": "CCOC(=O)[C@H]1O[C@@H]1C(=O)N[C@@H](CC(C)C)C(=O)NCCC(C)C", "target or system": "SARS-CoV-2", "conditions": "0.06 µM", "quantity": "inhibition", "result": "-1.62%"}
{"Structure (SMILES)": "CCN(CC)Cc1ccc(Nc2ccnc3cc(Cl)ccc23)cc1O", "target or system": "SARS-CoV-2", "test": "viral replication", "test system": "Vero E6, USA-WA1/2020", "conditions": "2.5 µM", "quantity": "inhibition", "result": "44.4%"}
{"Structure (SMILES)": "CC(=O)N1CCN(CCOc2ccc(C3CCN(C4=Nn5c(nnc5C(F)(F)F)CC4)CC3)cc2)CC1", "target or system": "SARS-CoV-2", "test": "viral replication", "test system": "Vero E6, USA-WA1/2020", "conditions": "2.5 µM", "quantity": "inhibition", "result": "49.8%"}
